Measurements collected from several papers.
Compare with care: the assays were run in different laboratories.

| Structure (SMILES) | sample | concentration | pH | temperature | setting | absorption maximum [nm] |
| --- | --- | --- | --- | --- | --- | --- |
| COc1cc(OC)cc(C2=C3C(C)=C(I)C(/C=C/c4c[nH]c5ccc([N+](=O)[O-])cc45)=[N+]3[B-](F)(F)n3c(/C=C/c4c[nH]c5ccc([N+](=O)[O-])cc45)c(I)c(C)c32)c1 | THF |  |  |  |  | 695 |
| COc1ccc2cc(-c3ccc(-c4ccc(C)cn4)nc3)oc2c1 | acetonitrile |  |  |  | zinc complex | 381 |
| O=C([O-])CN1CCN(CC(=O)[O-])CCN(CC(=O)c2ccc(-c3ccc(OCC(=O)O)cc3)cc2)CCN(CC(=O)[O-])CC1.[Eu+3] | PBS |  | pH 7.4 |  |  | 342 |
| CCOC(=O)c1[nH]c(C)c(/C=C/c2c(I)c(C)c3n2[B-](F)(F)[N+]2=C(C)C(I)=C(C)C2=C3c2cc(OC)cc(OC)c2)c1C | DMSO |  |  |  |  | 612 |
| COc1ccc(/C=C/c2ccc(-c3ccc(C)cn3)nc2)cc1 | aqueous HEPES buffer |  | pH 7.4 |  | zinc-free ligand | 344 |
| CCCCN1C(=O)c2cccc3c(NCCCN4CCOCC4)ccc(c23)C1=O | aqueous medium |  | pH 6 |  |  | 446 |
| COCCOCCOCCOc1ccc(/C=C/C2=[N+]3C(=C(c4cc(OC)cc(OC)c4)c4c(C)c(I)c(/C=C/c5ccc(OCCOCCOCCOC)cc5)n4[B-]3(F)F)C(C)=C2I)cc1 | THF |  |  |  |  | 664 |
| CC1(C)C(/C=C/C2=C(Cl)C(=C/C=C3/N(CCCCCC(=O)O)c4ccccc4C3(C)C)/C[N+](C)(C)C2)=[N+](CCCCCC(=O)O)c2ccccc21 | 10 mM PBS |  | pH 7.4 |  |  | 745 |
| CC1=CC(C)=[N+]2C1=C(CCCC(=O)O)c1c(C)cc(C)n1[B-]2(F)F | acetonitrile/water |  |  |  |  | 494 |
| COC(=O)c1ccccc1-c1c2ccc(=O)cc-2oc2c1ccc1cccc(O)c12 | aqueous HCl 10% DMSO | 10 to 15 µM | pH 1.9 |  |  | 530 |
| CCN(CC)c1ccc(-c2csc3c(C(=O)OC)cc(=O)n(C)c23)cc1 | dichloromethane | 10 µM |  |  |  | 283 |
| Nc1ncnc2c1nc(-n1nnc3c1CCC1C(CO)C1CC3)n2C1CC(O)C(CO)O1 (mixture of isomers) | methanol |  |  |  |  | 272 |
| COc1cc(/C=C2\SC(=S)NC2=O)cc(OC)c1OC | PBS |  |  |  | free ligand | 393 |
| CCn1cc(/C=C/c2ccc3ccccc3[n+]2CC)c2ccccc21 | MeOH | 10 µM |  |  |  | 483 |
| COCCOCCOCCOc1ccc(/C=C/c2c(I)c(C)c3n2[B-](F)(F)[N+]2=C(C)C(I)=C(C)C2=C3c2cc(OC)cc(OC)c2)cc1 | THF |  |  |  |  | 598 |
| COc1cc(/C=C2\SC(=S)NC2=O)cc(OC)c1OCc1ccc(B2OC(C)(C)C(C)(C)O2)cc1 | PBS |  |  |  | free ligand | 540 |

| Structure (SMILES) | sample | concentration | pH | temperature | setting | absorption maximum [nm] |
| --- | --- | --- | --- | --- | --- | --- |
| COc1cc(OC)cc(C2=C3C(C)=C(I)C(/C=C/c4cccs4)=[N+]3[B-](F)(F)n3c(/C=C/c4cccs4)c(I)c(C)c32)c1 | THF |  |  |  |  | 670 |
| COc1cccc(Cc2cc(CCC(=O)NCCNc3cccc4c(S(=O)(=O)O)cccc34)nn(CC(=O)Nc3ccc(Br)cc3)c2=O)c1 |  |  |  |  |  | ~340 |
| CC1=CC(C)=[N+]2C1=C(CCCC(=O)NCC1CCC(C(=O)NC(Cc3ccc4ccccc4c3)C(=O)NCCCCC(NC(=O)NC(CCC(=O)O)C(=O)O)C(=O)O)CC1)c1c(C)cc(C)n1[B-]2(F)F (stereo not shown) | acetonitrile/water |  |  |  |  | 496 |
| CCCCN1C(=O)c2cccc3c(NCCCCCCCCN4CCOCC4)ccc(c23)C1=O | aqueous medium |  | pH 6 |  |  | 453 |
| CCn1cc(/C=C/c2sc3ccccc3[n+]2CC)c2ccccc21 | DMSO | 10 µM |  |  |  | 478 |
| CC1=CC(C)=[N+]2C1=C(c1ccc(C[P+](c3ccccc3)(c3ccccc3)C3CCCCC3)cc1)c1c(C)cc(C)n1[B-]2(F)F | PBS | 10 µM | pH 7.4 | 298 K |  | 497 |
| COc1cc(OC)cc(C2=C3C(C)=C(I)C(C)=[N+]3[B-](F)(F)n3c(/C=C/c4cccs4)c(I)c(C)c32)c1 | THF |  |  |  |  | 598 |
| CCCCN1C(=O)c2cccc3c(NCCCCCCN4CCOCC4)ccc(c23)C1=O | aqueous medium |  | pH 6 |  |  | 454 |
| COC(=O)c1ccccc1-c1c2ccc(=[N+](C)C)cc-2oc2c1ccc1cccc(O)c12 | aqueous HCl 10% DMSO | 10 to 15 µM | pH 1.9 |  |  | 567 |
| COc1cc(OC)cc(C2=C3C(C)=C(I)C(C)=[N+]3[B-](F)(F)n3c(C)c(I)c(C)c32)c1 | DMSO |  |  |  |  | 538 |
| CC1=CC(C)=[N+]2C1=C(c1ccc(C[P+](c3ccccc3)(c3ccccc3)c3ccccc3)cc1)c1c(C)cc(C)n1[B-]2(F)F | PBS | 10 µM | pH 7.4 | 298 K |  | 497 |
| COC(=O)c1ccccc1-c1c2ccc(=O)cc-2oc2c1ccc1cccc(OC)c12 | phosphate buffer | 10 to 15 µM | pH 7.4 |  | 10% DMSO | 530 |
| CC1=CC(C)=[N+]2C1=C(c1ccc(C[P+](c3ccccc3)(C3CCCCC3)C3CCCCC3)cc1)c1c(C)cc(C)n1[B-]2(F)F | PBS | 10 µM | pH 7.4 | 298 K |  | 497 |
| COc1cc(OC)cc(C2=C3C(C)=C(I)C(C)=[N+]3[B-](F)(F)n3c(/C=C/c4c[nH]c5ccccc45)c(I)c(C)c32)c1 | dichloromethane |  |  |  |  | 618 |
| Cc1ccc(-c2ccc(-c3cc4sccc4o3)cn2)nc1 | acetonitrile |  |  |  | zinc complex | 380 |

Repeated from above:
| Structure (SMILES) | sample | concentration | pH | temperature | setting | absorption maximum [nm] |
| --- | --- | --- | --- | --- | --- | --- |
| CC1=CC(C)=[N+]2C1=C(c1ccc(C[P+](c3ccccc3)(C3CCCCC3)C3CCCCC3)cc1)c1c(C)cc(C)n1[B-]2(F)F | PBS | 10 µM | pH 7.4 | 298 K |  | 497 |
| COc1cc(OC)cc(C2=C3C(C)=C(I)C(C)=[N+]3[B-](F)(F)n3c(/C=C/c4c[nH]c5ccccc45)c(I)c(C)c32)c1 | dichloromethane |  |  |  |  | 618 |
